Experimental data collected from several papers.
A part holds a random share of what one study measured. Positions count from the first letter of the parent shown.

Set 1
Target: Centromere-binding protein 1, full length, N-terminal tag (CBF1, Saccharomyces cerevisiae, UniProt P17106, residues 1-351)
Chain of UniProt P17106 (whole entry, looked up): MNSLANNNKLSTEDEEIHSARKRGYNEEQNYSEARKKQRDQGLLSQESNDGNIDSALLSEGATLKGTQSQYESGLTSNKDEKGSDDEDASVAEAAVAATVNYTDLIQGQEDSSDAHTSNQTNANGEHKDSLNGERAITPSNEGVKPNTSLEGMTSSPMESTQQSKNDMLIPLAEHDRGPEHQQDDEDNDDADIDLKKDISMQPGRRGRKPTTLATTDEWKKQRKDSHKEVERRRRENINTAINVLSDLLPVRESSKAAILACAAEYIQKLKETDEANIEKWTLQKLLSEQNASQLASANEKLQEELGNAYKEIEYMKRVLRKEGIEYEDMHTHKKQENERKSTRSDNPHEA
Technique: protein-binding microarray
Form: double-stranded DNA, one strand shown
Medium: in vitro
Tested at: 0.8 µM
Setting: whole 60-bp probe, no competitor
Direction: higher = stronger binding
Constant ends, left off below: … GTCTTGATTCGCTTGACGCTGCTG
Sequence | fluorescence intensity [a.u.]
CTACAAATAAATCATCTCCTGAACCATTTTCTTTTC | 551
CTATTCTTTTCATCTCATATGATTTAGCGTTTTTTC | 584
CCTAACTACTATAGGAAGCTGATATAGCTTCGTACA | 488
GAATTTCCACTAAAACATGTGAAAGTAATTTTCTAG | 714
GAAATAAGAAACATCCATGTGATAAAACTCCGCTAG | 859
TGTACGAAGCTATGTCATGCTACTATAGTAGTTAGG | 564
GAACTGAAGCACATTCTCATGATGGAAACGAAGTAG | 607
CTAATTCTTCGTATTCACATGTACATTTTCATCTTC | 823
CTACAGGCGTACTCTTGTGACGTACCAAAGCGCTTC | 530
GAACTTGACGCGTCTCCGCTGACGCGCCTATATTAG | 487
GAAAAAGAATATAGTGACACCAAACCATAGAACTAG | 561
GAAATAAGCTCACGTGGTGTGGTATATCTTATTTAG | 8950
CTAATTTTGAAAACTCACTCACGTCTTCCTAGATTC | 543
GAACCGCAACTGCATCACCCGGGCGACCAATCATAG | 497
GAAGAAACAGATCTTGATGTTACAGCAAGGTCATAG | 507
CTAAAGATCCAAGATACCGTGACATTTCCTATTTTC | 685

Set 2
Target: Histone acetyltransferase KAT6A, both winged helices, GST fusion (KAT6A, Homo sapiens, UniProt Q92794, residues 1-181)
Technique: protein binding microarray
Form: double-stranded DNA, one strand shown
Medium: in vitro
Tested at: not given
Setting: 8-mer, flanks averaged, mean of 2 arrays, mostly near background
Baseline: not given
Direction: higher = stronger binding
Construct (chain): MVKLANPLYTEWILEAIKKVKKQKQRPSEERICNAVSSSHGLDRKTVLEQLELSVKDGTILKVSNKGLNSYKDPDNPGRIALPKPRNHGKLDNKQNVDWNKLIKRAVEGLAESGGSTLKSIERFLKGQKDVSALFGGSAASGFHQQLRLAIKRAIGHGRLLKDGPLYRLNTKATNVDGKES
Sequence | E-score
TGACCCCA | -0.25
AATCGAAA | 0.0101
CCAAGAAC | -0.171
CGTCTTAG | 0.0486
ACGAGCTC | 0.0299
AGCAAGTC | -0.141
GCTAACAA | 0.109
TTAACCAA | -0.174
AATCTCTA | -0.0473
AAGGGATA | -0.167
GTCGCAAA | 0.136
GGGGCACC | 0.0332
GACCTAAC | -0.0589
CCCACACA | -0.148
CAAGAGAG | -0.246
GCGTCCCC | 0.0287
CTGAGCAC | -0.0881
CCGTTCCC | 0.148
GACCTCCA | -0.017
AGGATGCC | -0.0895
GCTGGTGA | -0.0317
GGTGTCAC | -0.0418

Set 3
Target: TAR DNA-binding protein 43, full length, His tag (TARDBP, Homo sapiens, UniProt Q13148, residues 1-414)
Technique: RNA Bind-n-Seq
Form: RNA
Medium: in vitro
Tested at: 20 nM
Setting: 6-mer, flanks averaged, single round
With: 150 mM LiCl
Baseline: input library
Direction: higher = stronger binding
Sequence | 6-mer enrichment (R)
GCGGCG | 1.12
AUUAGA | 0.896
GUUGCU | 1.07
GGCGGU | 1.16
UCUUUU | 1.3
CCCAGA | 0.893
UCCUAU | 0.921
CAGCUU | 0.869
AAAAAU | 0.989
ACUCUU | 0.909
CUGUCA | 0.856
CCGAGU | 1
AUCAGC | 0.819
GUUCGG | 1.06
AGGCAG | 1
GUACUC | 0.857
GCUUGA | 0.982
AGUUCA | 0.857
ACUACG | 0.829
GGCGAC | 0.943
UCCAAU | 0.896
GAUUCC | 0.872
ACUCAC | 0.843
CGAUUA | 0.818
UCACAG | 0.82

Set 4
Target: RING finger protein unkempt homolog, zinc fingers 1-6, GST-SBP tag (UNK, Homo sapiens, UniProt Q9C0B0, residues 30-357)
Chain of UniProt Q9C0B0 (30-357, looked up): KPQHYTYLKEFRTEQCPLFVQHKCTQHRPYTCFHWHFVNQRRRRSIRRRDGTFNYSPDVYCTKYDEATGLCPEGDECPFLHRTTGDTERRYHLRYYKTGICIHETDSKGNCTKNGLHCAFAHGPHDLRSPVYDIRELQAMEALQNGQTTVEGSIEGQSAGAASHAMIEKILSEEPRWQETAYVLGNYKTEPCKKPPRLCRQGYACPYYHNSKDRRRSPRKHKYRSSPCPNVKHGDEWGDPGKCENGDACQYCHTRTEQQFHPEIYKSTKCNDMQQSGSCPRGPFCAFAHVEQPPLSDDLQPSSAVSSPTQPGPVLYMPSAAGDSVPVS
Technique: RNA Bind-n-Seq
Form: RNA
Medium: in vitro
Tested at: not given
Setting: RNA with constant flanks, human and mouse sites, ends assumed
Baseline: input RNA pool
Direction: higher = stronger binding
Constant ends, left off below: GGGAGUUCUACAGUCCGACGAUC … CAACAGAGGAUUGAGCAUCA
Sequence | bound/input enrichment [ratio]
GAACCUGAAGUUGAAUAUGAGACAUUAAAAGACACCUCAGAGAAGCUCAAACAGCUUGAGAUGGAGAACAGUCCUUUGCUGUCCCCUCGAUCCAACAUCGAUGUUAACAUAAACAGCCAG | 0.204
UAAAAUUUGCAAGUGUAUGGAGGACUAACCUCACUGACAGGAGGGGAUUCCACCUGGGAUUAGCUUUAUGAUUGUUGAUUGCCUAUUUUGCCAUUUAUAAACUGAAAGAAGGCACUAAAG | 0.293
UCGUGGAAGACGUGAGCGAAAUGACCAGCGAACUCAUUUUUUAUCAGACUUGCUGAAGCUGGCUUUUGCGUUUUUUCUACACGUACGCUUAAUUUUGUGGAAUAGUUAAGUGCUAUAUUC | 0.238
AUUAGAAAUGAUACCUUCAGUGACUCACCAGUUUGGCCAUGGAUCCCAUCAUUGUCUGAUGUAGCAGCUGUGUUUUUCAAUAUGGGGAUUGAUUUUAGAUCUUUGUUUCCCCUGGAGAAU | 0.318
GAAUUCAUGCAUGAGACCCAUGAUGGAGUCCAGGAUAUGGCUUGUGAUACUUUCAUUAAAAUAGCCCAAAAAUGCCGCAGGCAUUUCGUUCAGGUUCAGGUUGGAGAAGUGAUGCCAUUU | 0.55
CUUCAGUCUGUCUUUGUUCAGAGUUAUCUUGACCAAGGAACACAGAUCUUCUUAAACAACAGCAUUGAGAAAUCUGGCUGGCUAUUUAUCCAACUCUAUCAUUCUUUUGUAUCAUCUGUU | 0.116
AAUUCCUGCGCCUUCCUGACGUGAGCCCUGAGCGAUCUUCUAUGCAGUUCUGCCAUGCGUCCUGUUGGUCUCUCUGUGUUCUUUGUUACUUGGGUGCAAUAGCAACUUCCCUACCCCGUG | 0.214
AUUGCAUUUGUAGAAUUUGAGAAUGAUGGUCAGGCUGGAGCUGCCAGAGAUGCUCUGCAGGGGUUUAAGAUUACACCGUCCCAUGCCAUGAAGAUCACCUAUGCCAAGAAGUAACAUGUG | 0.119
CUUAAAAAUACUAAACAGAAAAAAAAAAGAAAAACAAAAAACUAGUCCAGGUAUGAUGGUGCCUGCCUUUAACCCCAGCACUUGGGAGGUAGAGGUGGGCAGAUCUCUUGAGAGAUCUGG | 1.14
UAGAAUCUUGUUUUUAGAUUGAAUUUGAAUCUAUAUUUAUUGUCUUUUUGUAUCUUGGAAAUUAGAGAUUUGUUAUAGAUUUACCUGUAUUUGUCAAGAUCAUAGCUGGUUUUAAAAAUG | 2.03
UCUUCUAAGAAUGGAUUUGGAUUCCGAGAUAGUGAUCUGGAUAUUUGUAUGACUCUGGAAGGCCAUGAAAAUGCAGAGAAAUUAAACUGUAAAGAAAUAAUUGAAAAUUUGGCGAAAAUU | 0.348

Set 5
Target: Sal-like protein 4, full length isoform A (SALL4, Homo sapiens, UniProt Q9UJQ4, residues 1-1053)
Chain of UniProt Q9UJQ4 (whole entry, looked up): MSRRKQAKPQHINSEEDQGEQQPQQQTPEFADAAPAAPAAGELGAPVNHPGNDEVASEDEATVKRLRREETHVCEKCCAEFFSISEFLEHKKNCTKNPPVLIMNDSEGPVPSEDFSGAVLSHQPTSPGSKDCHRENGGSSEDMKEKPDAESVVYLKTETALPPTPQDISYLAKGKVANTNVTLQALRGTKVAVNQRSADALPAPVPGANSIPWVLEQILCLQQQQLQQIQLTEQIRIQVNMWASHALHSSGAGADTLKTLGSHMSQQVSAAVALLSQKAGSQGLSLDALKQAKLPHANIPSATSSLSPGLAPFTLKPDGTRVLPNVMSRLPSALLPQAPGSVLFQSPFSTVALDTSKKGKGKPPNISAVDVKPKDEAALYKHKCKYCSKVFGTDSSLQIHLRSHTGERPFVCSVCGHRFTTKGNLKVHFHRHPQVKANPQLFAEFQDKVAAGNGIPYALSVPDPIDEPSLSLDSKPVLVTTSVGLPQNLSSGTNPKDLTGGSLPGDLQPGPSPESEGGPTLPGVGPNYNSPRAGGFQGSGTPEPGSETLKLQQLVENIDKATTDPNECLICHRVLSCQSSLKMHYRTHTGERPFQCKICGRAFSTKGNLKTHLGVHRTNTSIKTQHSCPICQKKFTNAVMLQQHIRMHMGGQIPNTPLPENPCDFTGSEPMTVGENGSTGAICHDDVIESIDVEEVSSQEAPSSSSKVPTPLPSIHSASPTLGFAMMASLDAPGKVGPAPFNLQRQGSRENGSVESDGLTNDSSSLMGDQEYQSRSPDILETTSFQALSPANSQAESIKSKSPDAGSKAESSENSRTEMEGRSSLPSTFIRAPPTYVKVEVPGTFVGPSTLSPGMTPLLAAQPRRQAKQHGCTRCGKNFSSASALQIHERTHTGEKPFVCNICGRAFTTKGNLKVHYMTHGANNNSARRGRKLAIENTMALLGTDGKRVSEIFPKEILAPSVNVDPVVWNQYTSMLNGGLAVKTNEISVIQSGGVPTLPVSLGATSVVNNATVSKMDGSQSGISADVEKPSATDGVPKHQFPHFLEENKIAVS
Technique: universal PBM
Form: double-stranded DNA, one strand shown
Medium: in vitro
Tested at: 600 nM
Setting: 8-mer, flanks averaged, mean of replicates
Direction: higher = stronger binding
Sequence | E-score
GCGTATGA | 0.0758
CCCTGGTC | -0.33
GCTCTTCC | -0.203
AAACACGC | -0.0158
CGCGGGAG | -0.304
ACTAGAAC | 0.0898
ACAATCCT | 0.192
CTCGCTGC | -0.0612
CAGTACGA | 0.089
ACGAGAGC | -0.106
CCGGCTAG | -0.353
ATTTCACC | 0.152
GACGAGGC | -0.226
GATGTAGA | 0.131
CTCGGATA | 0.0663
GATGGAAC | -0.0456
ATGGCGGG | -0.131
ACAGAAAG | 0.115
AACCAAGA | 0.144
GCAGGACC | -0.39
GAAAATCC | 0.104
GCAAACAA | 0.0731
CCGTAGAC | -0.118
GCAAGCAA | 0.0976
ACACTATG | 0.138

Set 6
Target: CCNB3, cyclin fold, Cln2 fusion (human)
Technique: yeast growth competition, sequencing
Medium: yeast
Setting: weak parent motif
Baseline: not given
Direction: higher = stronger binding
Starting sequence: CDC25A docking peptide (human); PPHRRRLLFACSP; partner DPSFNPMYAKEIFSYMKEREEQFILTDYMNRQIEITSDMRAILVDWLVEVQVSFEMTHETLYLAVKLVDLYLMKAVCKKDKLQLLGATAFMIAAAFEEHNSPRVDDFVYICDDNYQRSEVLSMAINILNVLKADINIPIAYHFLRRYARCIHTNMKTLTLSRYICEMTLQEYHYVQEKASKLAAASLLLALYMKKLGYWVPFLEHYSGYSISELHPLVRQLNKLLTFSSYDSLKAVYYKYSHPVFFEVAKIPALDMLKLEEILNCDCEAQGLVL
Change | normalised enrichment score
P13A | 0.34
A10N | 0.211
L7V | 0.0703
P2R | 0.438
R5A R6A L7A L8A | 0.222
P13S | 0.203
L8H | -0.0408
A10S | 0.135
P13F | 0.0368
L8N | 0.288
P1S | 0.347
R4G | 0.447
P2Y | 0.332
P13K | 0.137
R5H | 0.483
R5L | 0.521
A10H | 0.101
R5K | 0.539
A10D | 0.215
L7P | -0.0951
F9I | 0.228
C11V | 0.214
H3F | 0.613
R6F | -0.135
H3S | 0.38
